Results collected from several papers.
Each numbered part is a random draw from the data of one study; scales do not carry over between parts.

Set 1
Target: Histone acetyltransferase KAT6A, winged helix 2, GST fusion (KAT6A, Homo sapiens, UniProt Q92794, residues 85-181)
Technique: protein binding microarray
Form: double-stranded DNA, one strand shown
Matrix: in vitro
Tested at: not given
Setting: 8-mer, flanks averaged, mean of 2 arrays, mostly near background
Baseline: not given
Reading: higher = stronger binding
Residues (chain): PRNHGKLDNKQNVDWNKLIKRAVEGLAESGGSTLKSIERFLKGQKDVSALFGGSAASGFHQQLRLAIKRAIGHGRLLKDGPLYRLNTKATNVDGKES
The E-score of `CTTGTTTC` is reported as -0.00241.
For `CACATCTG`, the E-score was -0.142.
`GTGGGGTA` gave an E-score of -0.0197.
`ACGGAAAC` gave an E-score of -0.203.
The E-score of `AAGGACGC` is reported as -0.125.
`CGGAAATA` gave an E-score of 0.0838.
The E-score of `ATCGGGTC` is reported as 0.0693.
`CCACAAAA` gave an E-score of 0.219.
`AAGGCCCA` gave an E-score of -0.0807.
The E-score of `ACCACGAC` is reported as 0.0708.
The E-score of `CGATCGAC` is reported as -0.011.
For `CAACTAAA`, the E-score was 0.1.
For `CATTTACG`, the E-score was -0.229.
`CGGTCAAG` has an E-score of 0.0288.
For `ATATATCG`, the E-score was 0.0627.
For `GAACGCTC`, the E-score was -0.139.
With `GCTGCAGC` the E-score was -0.0767.
The E-score of `ATAATTCA` is reported as 0.0754.
With `ACGAAACA` the E-score was 0.0574.
With `CCACCTCA` the E-score was -0.123.
For `ACAGTCCG`, the E-score was -0.117.
`AGTATCAA` gave an E-score of 0.0863.
With `TCAGTCAA` the E-score was -0.0879.
The E-score of `TACATAAA` is reported as -0.159.
`CCGTAGAA` gave an E-score of -0.0575.

Set 2
Target: RNA binding protein fox-1 homolog 2, RRM domain, GST-SBP tag (RBFOX2, Homo sapiens, UniProt O43251-10, residues 100-194)
Technique: RNA Bind-n-Seq
Form: RNA
Matrix: in vitro
Tested at: 365 nM
Setting: natural RNA segment, single round, ends assumed
Baseline: no-protein control
Reading: higher = stronger binding
Shared flanks, not repeated: GGGAGUUCUACAGUCCGACGAUC … UGGAAUUCUCGGGUGCCAA
Target sequence (chain): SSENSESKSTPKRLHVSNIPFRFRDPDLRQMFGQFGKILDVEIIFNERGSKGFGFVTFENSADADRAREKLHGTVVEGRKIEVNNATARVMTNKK
`UGAAGGCACAGGGUUGUGUGGGUGACUAACUUCACACGGCAGAAGAGAUGUUGCUCUAAUGCUCACAAACAGGGCUUGCUCUUUUUUUUAUUUUUAGAGGAAAUACAUUU` — result for “RBNS enrichment (R)”: 0.45.
Under “RBNS enrichment (R)”, `UAAAUAUUAAGGAGAAUUCAUGACUCUUGACAGCUUUUCUCUCUUCACUCCCCAAGUCAAGGGGAGGGGUGGCAGGGGUCUGUUUCCUGGAAGUCAGGCUCAUCUGGCCU` is recorded as 0.182.
For `CUUGUGCGGAUGUCAGGGGACAUUACUGUUGCUAAUAAAGUCCAAAGUGGCCAAUGCCUUUCCCAAAGCAGUGUUGUUAUUGAAUCUGGCCCCUUCCCGAGGGGAUAAAA`, “RBNS enrichment (R)” read 0.588.
`UUGGCUUUACCAUCUUAACUCAGCUGUGGGUUUUUUGUGGGUUCUUGUUUGUUUUUUGGCAUGAAUUGUCAUCUUUGGUGUUUUUUUAACCCCCAGCCCCUCAAAAAAAU` — result for “RBNS enrichment (R)”: 0.822.
`UGAGCGAUCUUCUAUGCAGUUCUGCCAUGCGUCCUGUUGGUCUCUCUGUGUUCUUUGUUACUUGGGUGCAAUAGCAACUUCCCUACCCCGUGCAUUCCAUCUUUCAUGUU` — result for “RBNS enrichment (R)”: 0.325.
`CUCAAUGACACCAUUUUUAGUUUUAUUUCCUGAUAGCAAAAGGAAAAAAAACACCCAUCCCUCAAAAAGGCCAAGGUCCCGUCCCCCUGUUGUCGGUGAUUUGUUUGUCU`: “RBNS enrichment (R)” 0.484.
`AAAUAUCCUGAGCUUUGAGUGUCCUUUCACAGAGUGAACAAAACUGGUGUGGUGUAGACACGGCUUCUUUUGGCAUAUUCUAGAUCAGACAGUGUCACUGACAAACAAGA` — result for “RBNS enrichment (R)”: 0.266.
For `ACAGAGGCAGAUGCCAAACCAAAGACAGAUUGCUUAACCAACAGAUGGGCGCUGACCCCCUAUCCAGAAUCACAUGCACAAGUUUUUACCUAGCCAGUUGUUUCUGAGGA`, “RBNS enrichment (R)” read 0.224.

Set 3
Target: Ras GTPase-activating protein-binding protein 1, full length (G3BP1, Homo sapiens, UniProt Q13283)
Chain of UniProt Q13283 (whole entry, looked up): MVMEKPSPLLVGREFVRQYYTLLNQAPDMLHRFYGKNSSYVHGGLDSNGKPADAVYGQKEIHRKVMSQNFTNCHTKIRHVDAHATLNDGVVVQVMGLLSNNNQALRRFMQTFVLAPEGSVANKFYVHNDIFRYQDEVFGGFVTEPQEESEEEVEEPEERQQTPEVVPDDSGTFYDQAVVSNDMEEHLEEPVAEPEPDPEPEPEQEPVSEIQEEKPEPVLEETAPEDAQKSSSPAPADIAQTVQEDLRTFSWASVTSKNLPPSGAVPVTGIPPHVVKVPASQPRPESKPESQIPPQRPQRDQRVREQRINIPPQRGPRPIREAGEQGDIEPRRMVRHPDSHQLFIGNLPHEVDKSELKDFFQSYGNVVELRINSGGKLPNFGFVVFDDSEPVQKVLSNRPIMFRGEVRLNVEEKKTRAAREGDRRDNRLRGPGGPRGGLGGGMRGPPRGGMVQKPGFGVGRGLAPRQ
Technique: RNA Bind-n-Seq
Form: RNA
Matrix: in vitro
Tested at: 200 nM
Setting: whole 134-nt RNA, ends assumed
Together with: 150 mM KCl
Baseline: input library
Reading: higher = stronger binding
Shared flanks, not repeated: GGGAGUUCUACAGUCCGACGAUC … UGGAAUUCUCGGGUGUCAAGG
For `GGAAGGGGGCUUGCGCCACGGCAGUGAAUCUUCAUGGAUCUUCAUGCAGCCAUACAAACCCUGGUUCCAACAGAAUGGUGAAUUUUCGAC`, the log2 enrichment was -1.37.
`AAGUCCUGUGCUACACAUCGUAUGUACCGAAUCGGUGGAAAAAAAGGAAAAAAAGGAAAGUAUUAUGUUACGCCGUUCGGAUCUGCACUU` has a log2 enrichment of -1.09.
The log2 enrichment of `CCUGUGCUACACAUCGUAUGUACCGAAUCGGGGCCCCCCCGGCCCCCCCGGCCCCCCCGGAAAGUAUUAUGUUACGCCGUUCGGAUCUGC` is reported as 0.131.
`AGUCCUGUGCUACACAUCGUAUGUACCGAAUCGGGAAAAAGGAAAAAGGAAAAAGGGGAAAGUAUUAUGUUACGCCGUUCGGAUCUGCAC` has a log2 enrichment of -0.602.
For `UGGCCCUGGUGGCAUGCGGGGAGGAAGAGGUGGCCUCAUGGAUCGUGGUGGUCCCGGUGGAAUGUUCAUAGGUGGCCGUGGUGGAGACAG`, the log2 enrichment was 0.132.
`ACCAUGCAGGUGGGCAUCUUUGGGAAGGGGGGCAAGGGGGGGAUAGGGAGGGGGGUAACACUUUGGGAACAGGUGGUCCCAGGUCGUUUC` has a log2 enrichment of 1.16.
For `UGGCCCUGGUGGCAUGCGGGGAGGAAGAGGUGGCCUCAUGGAUCGUGGUGGCCCCGGUGGAAUGUUCAGAGGUGGCCGUGGUGGAGACAG`, the log2 enrichment was 0.158.
For `UCCUGUGCUACACAUCGUAUGUACCGAAUCGGGGAAAGGGGUUUUUGGGGAAAAAGGGGAAAGUAUUAUGUUACGCCGUUCGGAUCUGCA`, the log2 enrichment was 0.681.
`UCCUCAAGUCCUGUGCUACACAUCGUAUGUACCGAAUCGGCGGCGGGCGGGGAAAGUAUUAUGUUACGCCGUUCGGAUCUGCACUUCCAG` gave a log2 enrichment of 0.365.

Set 4
Target: Phosphate system positive regulatory protein PHO4, full length, GST-tagged (PHO4, Saccharomyces cerevisiae, UniProt P07270, residues 1-312)
Technique: competition protein-binding microarray
Form: double-stranded DNA, one strand shown
Matrix: in vitro
Tested at: 2 µM
Setting: whole 60-bp probe, lowest competitor level
Together with: Cbf1 competitor, 0.05 µM
Reading: higher = stronger binding
Shared flanks, not repeated: … GTCTTGATTCGCTTGACGCTGCTG
Construct (chain): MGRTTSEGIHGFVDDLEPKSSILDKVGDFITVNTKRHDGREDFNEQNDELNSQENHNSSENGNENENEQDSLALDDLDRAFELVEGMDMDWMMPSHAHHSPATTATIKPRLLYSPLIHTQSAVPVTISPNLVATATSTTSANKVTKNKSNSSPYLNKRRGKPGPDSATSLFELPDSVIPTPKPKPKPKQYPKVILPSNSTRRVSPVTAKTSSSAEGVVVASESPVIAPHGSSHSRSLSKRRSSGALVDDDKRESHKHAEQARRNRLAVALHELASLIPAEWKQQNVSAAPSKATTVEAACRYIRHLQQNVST
`CTTCTGTAAATTTGTGGAGTGGGTGGACGCGCCCCG` gave a fluorescence intensity of 4050 a.u.
`TTCCATCTGGGGACCCACATGTGTGGGTTTGGATTG` has a fluorescence intensity of 13200 a.u.
`TGCGCAACAACTTGACCAGTGGGTGTATGTCTAGAA` gave a fluorescence intensity of 4320 a.u.
For `ACTTTTTGTGGGGTAAACGTGGATTAAACGAATCTC`, the fluorescence intensity was 12600 a.u.
`CTAACGAAGGTTTGTCACACAACTTACAAGCCAAGT` has a fluorescence intensity of 4000 a.u.
For `CTAACGAAGGTTTGTCGCGTGGGTGACAAGCCAAGT`, the fluorescence intensity was 8480 a.u.
The fluorescence intensity of `CATACCCAACCTTGAAAGGTGGGTGAAGATATTTGT` is reported as 3950 a.u.
For `GAGCGAGACTGCCAACACGTGCACACTCCGTCCAGA`, the fluorescence intensity was 18900 a.u.
`CTAACGAAGGTTTGTCCAGTGGGTGACAAGCCAAGT` gave a fluorescence intensity of 3250 a.u.
`TGATGAGGACACCGACACGTGCAAACATGGTAGTGC` has a fluorescence intensity of 18800 a.u.
With `ATGAATACACTTTGAAACGTGACGGTGCCATCGATG` the fluorescence intensity was 9540 a.u.
`CATACCCAACCTTGAATAGTGGGTGAAGATATTTGT` gave a fluorescence intensity of 3970 a.u.
With `GGTCCAGCCTCGAAACTCGTGACGGCATTTGAGGTG` the fluorescence intensity was 9020 a.u.
`GCGTTATGAGCTACCCTCGTGGCCGGAAAGATGGCG` gave a fluorescence intensity of 12500 a.u.
The fluorescence intensity of `CTTATAAACAGCGCTGACGTGCTTTGACTTTGTTCC` is reported as 5540 a.u.
With `CATACCCAACCTTTTCACGTGAATTAAGATATTTGT` the fluorescence intensity was 11800 a.u.
The fluorescence intensity of `CGGGGTTAAGTTTGCAACGTGGGTGGCTTGCAGCAG` is reported as 13100 a.u.

Some of these lines once more (set 2):
`UGAAGGCACAGGGUUGUGUGGGUGACUAACUUCACACGGCAGAAGAGAUGUUGCUCUAAUGCUCACAAACAGGGCUUGCUCUUUUUUUUAUUUUUAGAGGAAAUACAUUU` — result for “RBNS enrichment (R)”: 0.45.
Under “RBNS enrichment (R)”, `UAAAUAUUAAGGAGAAUUCAUGACUCUUGACAGCUUUUCUCUCUUCACUCCCCAAGUCAAGGGGAGGGGUGGCAGGGGUCUGUUUCCUGGAAGUCAGGCUCAUCUGGCCU` is recorded as 0.182.
For `CUUGUGCGGAUGUCAGGGGACAUUACUGUUGCUAAUAAAGUCCAAAGUGGCCAAUGCCUUUCCCAAAGCAGUGUUGUUAUUGAAUCUGGCCCCUUCCCGAGGGGAUAAAA`, “RBNS enrichment (R)” read 0.588.
`UUGGCUUUACCAUCUUAACUCAGCUGUGGGUUUUUUGUGGGUUCUUGUUUGUUUUUUGGCAUGAAUUGUCAUCUUUGGUGUUUUUUUAACCCCCAGCCCCUCAAAAAAAU` — result for “RBNS enrichment (R)”: 0.822.
`UGAGCGAUCUUCUAUGCAGUUCUGCCAUGCGUCCUGUUGGUCUCUCUGUGUUCUUUGUUACUUGGGUGCAAUAGCAACUUCCCUACCCCGUGCAUUCCAUCUUUCAUGUU` — result for “RBNS enrichment (R)”: 0.325.
